{"data": "Assay results gathered from unrelated publications", "note": "Every numbered part comes from another study and shows a few of its results, in no order. Changes are numbered by the printed parent chain."}
{"data": "Series 1", "target": "CCND1, cyclin fold, Cln2 fusion (human)", "method": "yeast growth competition, sequencing", "sample": "yeast", "setting": "weak parent motif", "baseline": "not given", "direction": "higher = stronger binding", "starting sequence": "PKN2 docking peptide (human); DSTVTKLDFDLEP; partner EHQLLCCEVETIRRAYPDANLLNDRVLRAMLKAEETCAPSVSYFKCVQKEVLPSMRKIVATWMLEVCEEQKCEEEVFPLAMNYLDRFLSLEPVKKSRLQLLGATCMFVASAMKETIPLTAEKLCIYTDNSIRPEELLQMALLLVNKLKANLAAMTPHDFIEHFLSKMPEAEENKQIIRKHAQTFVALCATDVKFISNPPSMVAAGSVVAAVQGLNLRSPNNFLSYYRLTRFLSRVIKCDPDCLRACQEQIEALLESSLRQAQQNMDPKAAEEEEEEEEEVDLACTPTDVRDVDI"}
{"Substitution": "ASTVTKLDFDLEP [D1A]", "normalised enrichment score": 0.539}
{"Substitution": "DSTVTKADFDLEP [L7A]", "normalised enrichment score": 0.125}
{"Substitution": "DSTVTKLDFDAEP [L11A]", "normalised enrichment score": 0.836}
{"Substitution": "DSTVAKLDFDLEP [T5A]", "normalised enrichment score": 0.637}
{"Substitution": "DSTVTKLDFDLAP [E12A]", "normalised enrichment score": 0.923}
{"Substitution": "DSTVTKLDFDLEA [P13A]", "normalised enrichment score": 0.683}
{"data": "Series 2", "target": "JUNB, bZIP domain (human)", "method": "DHFR protein complementation", "sample": "yeast", "setting": "single substitutions, most at no-binding floor", "baseline": "wild-type JUN-FOS pair", "direction": "higher = stronger binding", "starting sequence": "JUN, bZIP domain (human); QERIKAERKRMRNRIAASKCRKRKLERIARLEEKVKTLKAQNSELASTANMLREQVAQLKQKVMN; partner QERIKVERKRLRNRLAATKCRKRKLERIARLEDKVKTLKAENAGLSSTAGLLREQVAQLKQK"}
{"Substitution": "A49D", "binding fitness [natural log]": -1.6}
{"Substitution": "E44Q", "binding fitness [natural log]": -1.18}
{"Substitution": "A40G", "binding fitness [natural log]": -1.42}
{"Substitution": "T37W", "binding fitness [natural log]": -1.07}
{"Substitution": "I28Q", "binding fitness [natural log]": -1.28}
{"Substitution": "L38S", "binding fitness [natural log]": -1.53}
{"Substitution": "S43V", "binding fitness [natural log]": -1.12}
{"data": "Series 3", "target": "Histone acetyltransferase KAT6A, both winged helices, GST fusion (KAT6A, Homo sapiens, UniProt Q92794, residues 1-181)", "method": "protein binding microarray", "molecule type": "double-stranded DNA, one strand shown", "sample": "in vitro", "concentration": "not given", "setting": "8-mer, flanks averaged, mean of 2 arrays, mostly near background", "baseline": "not given", "direction": "higher = stronger binding", "Construct (chain)": "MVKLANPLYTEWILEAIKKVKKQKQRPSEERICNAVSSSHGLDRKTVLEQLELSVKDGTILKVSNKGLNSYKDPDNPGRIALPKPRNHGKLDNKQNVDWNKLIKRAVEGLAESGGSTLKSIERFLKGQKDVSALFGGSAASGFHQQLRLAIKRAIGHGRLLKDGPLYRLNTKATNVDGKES"}
{"Oligonucleotide": "CATCGTGC", "E-score": -0.0712}
{"Oligonucleotide": "GTCTCCCA", "E-score": -0.138}
{"Oligonucleotide": "ACCCGATA", "E-score": 0.0644}
{"Oligonucleotide": "TGGCCTAA", "E-score": -0.11}
{"Oligonucleotide": "CTGGGTAA", "E-score": -0.215}
{"Oligonucleotide": "AATATACA", "E-score": -0.0877}
{"Oligonucleotide": "ATGGCGAA", "E-score": 0.0492}
{"data": "Other studies, line by line"}
{"Substance": "PhoQ, residues 284 288 289 292 302 303 QWGLFV", "target": "PhoP, residues 12 14 15 18 19 LWHVM (Escherichia coli, UniProt P23836)", "assay": "Sort-seq, refers to: YFP reporter", "system": "E. coli", "setting": "PhoQ-PhoP variant library, added: 10 µM Mg2+", "how to read": "baseline: high Mg2+ state, higher = stronger signaling", "measurement": "fold induction", "value": 4.06}
{"note": "Repeated from above (series 2):"}
{"Substitution": "I28Q", "binding fitness [natural log]": -1.28}
{"Substitution": "A40G", "binding fitness [natural log]": -1.42}
{"Substitution": "A49D", "binding fitness [natural log]": -1.6}
{"Substitution": "L38S", "binding fitness [natural log]": -1.53}
